# Measured values pooled from the literature.
# Compare with care: the assays were run in different laboratories. ± marks the error that the study gave.
Compound,system,setting,scale,endpoint,value
C[C@@H]1CC[C@H]2[C@@H](C)C(=O)O[C@@H]3O[C@@]4(C)CC[C@@H]1[C@]32OO4,"human, male, plasma","oral, dose not given, day 2",,CL/F,258 ± 73.3 mL/min/kg
O[C@H]1CCCN[C@@H]1CCCn1cnc2c(Cl)c(Cl)ccc21,"healthy human, plasma","oral, 150 mg twice daily, steady state",,CL/F,152 L/h
Cc1nnc2n1-c1ccc(Cl)cc1C(c1ccccc1)=NC2,human female,"dose not given, day 22",relative to: day 0,CL/F change,4%
CC[C@H](C)[C@H](NC(=O)[C@H](CC(C)C)NC(=O)[C@H](Cc1c[nH]c2ccccc12)NC(=O)[C@H](CCC(N)=O)NC(=O)[C@@H](NC(=O)[C@H](Cc1ccccc1)NC(=O)[C@H](C)NC(=O)[C@H](CCCCNC(=O)COCCOCCNC(=O)COCCOCCNC(=O)CC[C@H](NC(=O)CCCCCCCCCCCCCCCCCCC(=O)O)C(=O)O)NC(=O)[C@H](CCC(N)=O)NC(=O)[C@H](C)NC(=O)[C@@H](NC(=O)[C@H](CCCCN)NC(=O)[C@H](CC(=O)O)NC(=O)[C@H](CC(C)C)NC(=O)C(C)(C)NC(=O)[C@@H](NC(=O)[C@H](CO)NC(=O)[C@H](Cc1ccc(O)cc1)NC(=O)[C@H](CC(=O)O)NC(=O)[C@H](CO)NC(=O)[C@@H](NC(=O)[C@H](Cc1ccccc1)NC(=O)[C@@H](NC(=O)CNC(=O)[C@H](CCC(=O)O)NC(=O)C(C)(C)NC(=O)[C@@H](N)Cc1ccc(O)cc1)[C@@H](C)O)[C@@H](C)O)[C@@H](C)CC)[C@@H](C)CC)C(C)C)C(=O)N[C@@H](C)C(=O)NCC(=O)NCC(=O)N1CCC[C@H]1C(=O)N[C@@H](CO)C(=O)N[C@@H](CO)C(=O)NCC(=O)N[C@@H](C)C(=O)N1CCC[C@H]1C(=O)N1CCC[C@H]1C(=O)N1CCC[C@H]1C(=O)N[C@@H](CO)C(N)=O,"human, plasma","subcutaneous, 10 mg, week 8, geometric mean",,CL/F,0.0311 L/h
CC(C)c1nc(N(C)S(C)(=O)=O)nc(-c2ccc(F)cc2)c1/C=C/[C@@H](O)C[C@@H](O)CC(=O)O,"healthy human subjects, plasma","oral, 20 mg, day 1, alone, geometric mean",,CL/F,408 L/h
COc1ccc2c(c1)[C@]13CCCC[C@@H]1[C@H](C2)N(C)CC3,human female,"dose not given, day 22",relative to: day 0,CL/F change,-10.7%
Cc1ncc2n1-c1ccc(Cl)cc1C(c1ccccc1F)=NC2,human,"oral, substrate with omaveloxolone, added: omaveloxolone once daily",,CL/F,130 L/h
CCN(CC)C(=O)[C@@H]1C=C2c3cccc4[nH]cc(c34)C[C@H]2N(C)C1,"human, plasma","dose not given, after placebo pretreatment",,CL/F,6.9 L/h

# For quick reference, copied from above:
Compound,system,setting,scale,endpoint,value
Cc1nnc2n1-c1ccc(Cl)cc1C(c1ccccc1)=NC2,human female,"dose not given, day 22",relative to: day 0,CL/F change,4%
